Published values from different studies.
Lines come from different studies, so protocols differ. pIC50: −log10 of the molar value.

Cc1c(C(=O)O)ccc2c3n(nc12)[C@@H]1[C@H](C3)N(CC2CC2)[C@@]2(C(=O)Nc3cc(Cl)ccc32)[C@H]1c1cccc(Cl)c1F — pIC50 (MC-38 (TP53 mutant); cell proliferation, alamarBlue; 72 h): 5.01
CCc1cc2c(cc1N1CCC(N3CCOCC3)CC1)C(C)(C)c1[nH]c3cc(C#N)ccc3c1C2=O — pIC50 (Ba/F3 TPM3-TRKA; cell viability): 6.14
CC1(C)CCC(CN2CCN(c3ccc(C(=O)NS(=O)(=O)c4ccc(NCC5CCOCC5)c([N+](=O)[O-])c4)c(Oc4cnc5[nH]ccc5c4)c3)CC2)=C(c2ccc(Cl)cc2)C1 — pIC50 (CD3+CD4- T cells; cell viability; AML patients): 8.13
C=CC(=O)N1CCC(COCC(=O)N2CCN(c3nc(-c4cnc(N)nc4C(F)F)nc(N4CCOC[C@@H]4C)n3)CC2)CC1 — pIC50 (A2058; western blot, refers to: phospho-PKB/Akt Ser473; 2 h): 6.61
Cc1cc(Nc2ncc(Cl)c(Nc3ccccc3S(=O)(=O)C(C)C)n2)c(OC(C)C)cc1C1CCNCC1 — pIC50 (Ba/F3 ETV6-TRKC; cell viability): 6.15
O=C(C[C@@H](C(F)F)n1ccc(F)n1)N1CCC(O)(Cn2cnc3c(cnn3-c3ccc(F)cc3)c2=O)CC1 — pIC50 (LNCaP; cell viability, CCK-8; mean of 3 runs): 7.53
CCCCN1C[C@H](O)[C@@H](O)[C@@H](O)[C@H]1CO — pIC50 (sample F patient fibroblasts; Gb3 level lowering, LC-MS/MS, refers to: Gb3 d18:1/18:0; 216 h): 5.16
Cc1nc(NC(=O)N2CCC[C@H]2C(N)=O)sc1-c1ccnc(C(C)(C)C(F)(F)F)c1 — pIC50 (A2058; western blot, refers to: phospho-S6 Ser235/Ser236; 2 h): < 5.52
